Results from different studies.
Every numbered part comes from another study and shows a few of its results, in no order.

Series 1 — method: RNA Bind-n-Seq; molecule type: RNA; medium: in vitro; tested at: not given; relative to: input RNA pool; direction: higher = stronger binding
Target: RING finger protein unkempt homolog, zinc fingers 1-6, GST-SBP tag (UNK, Homo sapiens, UniProt Q9C0B0, residues 30-357)
Notes: RNA with constant flanks, human and mouse sites, ends assumed
Shared flanks, not repeated: GGGAGUUCUACAGUCCGACGAUC … CAACAGAGGAUUGAGCAUCA
Construct (chain): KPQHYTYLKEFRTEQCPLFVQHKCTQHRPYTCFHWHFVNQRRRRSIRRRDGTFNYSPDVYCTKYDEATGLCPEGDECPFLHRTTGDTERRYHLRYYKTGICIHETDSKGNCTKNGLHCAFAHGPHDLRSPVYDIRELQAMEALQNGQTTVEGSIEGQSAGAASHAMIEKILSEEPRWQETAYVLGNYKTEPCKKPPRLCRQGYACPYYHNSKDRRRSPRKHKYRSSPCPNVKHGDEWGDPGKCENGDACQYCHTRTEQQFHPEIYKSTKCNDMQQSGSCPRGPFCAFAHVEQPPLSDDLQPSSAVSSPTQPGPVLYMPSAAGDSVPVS
For `GAUUCUGAUGACAGUGCUUCAGGGAUUGAAGAUACAGCAGAUGAUUUGAGUAAAAUGAAGAGUGAGGAAUCUAACAAAGAAAAUUCUUCUGAGAUGGACUAUUUAGAAAAUGCCACUGUA`, the bound/input enrichment was 0.324 ratio.
For `CAUGCUGAUCUGUGGCCAGCCAAACAAUACCCACUUGUCACGCCAAAUGAAGAGAGAAAUGUCAUGGAAGAGGGAAAAGACUUUCAGCCCUCAAGAUCUACAGCUCAACAGGAACUUGAU`, the bound/input enrichment was 0.0803 ratio.
With `UAGCAGGUAAGGCCUCUCAGUGUGAUGAGCUGUUGCCAAAACUCAAUGUCUGCCCCUUCGCCUAAGGUCUCAAAGACAAACCAACAACUCCAAAGUCCAUGCAGGCUAACCUUAUAUAGU` the bound/input enrichment was 0.183 ratio.
For `ACAAUGAAACUAGUCUGGAAAAAAAAACUUGCUUUUUGUUGUAGUUACCACUUAACCCUGUAGUUUAACAAGGAAUGUCUGUGCCAAUAAACCAAUUCUCCCUCUGCUUGACAUUGGCAG`, the bound/input enrichment was 0.841 ratio.
The bound/input enrichment of `AAUCACUUUGAAAUCCUCCCUCCUGAACUGGGUGACUGUCGGGCUCUGAAGCGAGCUGGUUUAGUUGUAGAAGAUGCUCUGUUUGAAACUCUGCCUUCUGACGUCCGGGAGCAAAUGAAA` is reported as 2.2 ratio.
With `GGAAGCCUAAAGUCUGUGGAAGCUAUUCUAGAAGAAAGCACUGAAAAACUCAAAAGCUUGUCACUGCAGCAACAGCAGGAUGGAGAUAAUGGGGACAGCAGCAAAAGUACUGAGACAAGU` the bound/input enrichment was 0.374 ratio.

Series 2 — method: universal PBM; molecule type: double-stranded DNA, one strand shown; medium: in vitro; tested at: not given; direction: higher = stronger binding
Target: Sal-like protein 4, full length isoform B (SALL4, Homo sapiens, UniProt Q9UJQ4-2, residues 1-616)
Notes: 8-mer, flanks averaged, mean of replicates
`ACGCAAGC` has an E-score of -0.0606.
`CAAACAGC` gave an E-score of -0.0323.
The E-score of `CTGACCGA` is reported as -0.227.
The E-score of `AGCGCATC` is reported as -0.187.
`AAGGTCCA` has an E-score of -0.0939.
For `TACTTGAA`, the E-score was 0.289.

Series 3 — method: protein binding microarray; molecule type: double-stranded DNA, one strand shown; medium: in vitro; tested at: not given; relative to: not given; direction: higher = stronger binding
Target: Histone acetyltransferase KAT6A, winged helix 1, GST fusion (KAT6A, Homo sapiens, UniProt Q92794, residues 1-85)
Notes: 8-mer, flanks averaged, mean of 2 arrays, mostly near background
Residues (chain): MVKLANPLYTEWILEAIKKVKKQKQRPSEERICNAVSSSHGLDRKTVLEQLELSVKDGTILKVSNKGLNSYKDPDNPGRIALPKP
With `ATCCAGGC` the E-score was -0.119.
The E-score of `CGATCTTA` is reported as 0.0745.
With `AGGATCAC` the E-score was -0.171.
`ACCCGGTA` has an E-score of 0.189.
`ATAAGTTC` gave an E-score of -0.12.
For `GATTGAAA`, the E-score was -0.145.
For `GCTGGATA`, the E-score was -0.252.
`GTGGGTCA` gave an E-score of -0.0733.
`CTCGCTTC` has an E-score of -0.015.
`TGCGACCA` has an E-score of 0.118.
For `AGATAGAT`, the E-score was -0.0596.

Mixed results
For `PhoQ, residues 284 288 289 292 302 303 TLASMF`, the fold induction was 2.16 (PhoP, residues 12 14 15 18 19 TQAIL (Escherichia coli, UniProt P23836); Sort-seq, refers to: YFP reporter; E. coli; PhoQ-PhoP variant library, added: 10 µM Mg2+; relative to: high Mg2+ state, higher = stronger signaling).
